Measurements of several laboratories.
Lines come from different studies, so protocols differ. “And” joins repeats or separate records; there may be more than shown. ± marks the error that the study gave.
BCHE: Cholinesterase (BCHE, Equus caballus, UniProt P81908)
Chain of UniProt P81908 (whole entry, looked up): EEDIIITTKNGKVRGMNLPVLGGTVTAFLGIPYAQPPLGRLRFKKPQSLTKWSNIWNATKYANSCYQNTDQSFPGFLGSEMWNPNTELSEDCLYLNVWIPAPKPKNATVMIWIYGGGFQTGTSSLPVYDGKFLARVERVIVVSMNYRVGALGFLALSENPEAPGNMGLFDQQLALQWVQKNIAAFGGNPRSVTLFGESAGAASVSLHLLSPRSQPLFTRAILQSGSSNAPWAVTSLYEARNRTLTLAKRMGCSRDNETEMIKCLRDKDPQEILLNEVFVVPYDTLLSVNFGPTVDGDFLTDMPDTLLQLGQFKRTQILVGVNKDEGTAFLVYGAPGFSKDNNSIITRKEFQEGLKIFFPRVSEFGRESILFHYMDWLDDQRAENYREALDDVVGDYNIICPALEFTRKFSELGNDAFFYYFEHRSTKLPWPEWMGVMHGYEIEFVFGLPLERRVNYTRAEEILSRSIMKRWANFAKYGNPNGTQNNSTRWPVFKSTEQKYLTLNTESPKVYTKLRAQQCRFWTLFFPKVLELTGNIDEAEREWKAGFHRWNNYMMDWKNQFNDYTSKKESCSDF
Chain of UniProt Q8TCC7 (whole entry, looked up): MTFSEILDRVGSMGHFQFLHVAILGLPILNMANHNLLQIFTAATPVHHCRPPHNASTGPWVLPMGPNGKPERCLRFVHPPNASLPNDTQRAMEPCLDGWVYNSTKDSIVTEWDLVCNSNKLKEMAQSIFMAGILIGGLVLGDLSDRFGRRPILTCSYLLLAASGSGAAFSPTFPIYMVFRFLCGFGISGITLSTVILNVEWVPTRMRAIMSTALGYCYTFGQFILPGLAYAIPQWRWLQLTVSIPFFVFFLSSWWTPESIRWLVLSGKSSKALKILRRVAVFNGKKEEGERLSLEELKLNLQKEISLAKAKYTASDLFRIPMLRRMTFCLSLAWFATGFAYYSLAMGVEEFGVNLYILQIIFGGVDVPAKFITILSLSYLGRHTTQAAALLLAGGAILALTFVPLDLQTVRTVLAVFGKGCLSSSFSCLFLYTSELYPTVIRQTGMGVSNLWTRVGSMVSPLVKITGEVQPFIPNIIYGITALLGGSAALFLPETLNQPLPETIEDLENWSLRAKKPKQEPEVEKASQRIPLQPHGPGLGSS
Chain of UniProt P28335 (whole entry, looked up): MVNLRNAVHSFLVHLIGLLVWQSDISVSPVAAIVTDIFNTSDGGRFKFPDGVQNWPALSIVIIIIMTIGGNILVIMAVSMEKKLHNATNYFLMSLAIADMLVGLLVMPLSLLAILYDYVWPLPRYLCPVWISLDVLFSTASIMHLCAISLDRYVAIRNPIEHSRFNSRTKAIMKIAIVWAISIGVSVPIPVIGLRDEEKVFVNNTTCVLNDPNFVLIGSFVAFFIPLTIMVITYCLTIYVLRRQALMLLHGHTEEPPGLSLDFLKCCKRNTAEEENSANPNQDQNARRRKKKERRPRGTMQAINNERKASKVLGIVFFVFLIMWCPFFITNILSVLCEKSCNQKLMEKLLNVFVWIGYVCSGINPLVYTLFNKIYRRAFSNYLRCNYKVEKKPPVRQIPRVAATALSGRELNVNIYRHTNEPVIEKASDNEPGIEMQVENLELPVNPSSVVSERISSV
Chain of UniProt O43318 (whole entry, looked up): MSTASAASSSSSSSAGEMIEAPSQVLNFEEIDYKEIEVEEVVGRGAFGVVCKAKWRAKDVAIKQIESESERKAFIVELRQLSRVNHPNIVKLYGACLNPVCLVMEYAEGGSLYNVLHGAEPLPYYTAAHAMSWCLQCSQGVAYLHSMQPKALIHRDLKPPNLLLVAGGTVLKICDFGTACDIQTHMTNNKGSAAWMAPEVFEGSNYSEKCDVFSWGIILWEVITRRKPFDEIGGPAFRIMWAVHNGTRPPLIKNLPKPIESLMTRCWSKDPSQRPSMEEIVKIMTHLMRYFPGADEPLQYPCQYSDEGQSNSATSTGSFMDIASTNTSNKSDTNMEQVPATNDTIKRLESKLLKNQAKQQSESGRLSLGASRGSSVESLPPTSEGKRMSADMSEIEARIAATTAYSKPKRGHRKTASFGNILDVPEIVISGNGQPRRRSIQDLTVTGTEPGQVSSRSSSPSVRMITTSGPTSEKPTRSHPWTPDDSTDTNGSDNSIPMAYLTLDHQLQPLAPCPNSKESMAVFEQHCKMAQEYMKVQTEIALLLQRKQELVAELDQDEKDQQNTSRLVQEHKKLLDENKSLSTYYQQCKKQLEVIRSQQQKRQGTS
Chain of UniProt Q8TD19 (whole entry, looked up): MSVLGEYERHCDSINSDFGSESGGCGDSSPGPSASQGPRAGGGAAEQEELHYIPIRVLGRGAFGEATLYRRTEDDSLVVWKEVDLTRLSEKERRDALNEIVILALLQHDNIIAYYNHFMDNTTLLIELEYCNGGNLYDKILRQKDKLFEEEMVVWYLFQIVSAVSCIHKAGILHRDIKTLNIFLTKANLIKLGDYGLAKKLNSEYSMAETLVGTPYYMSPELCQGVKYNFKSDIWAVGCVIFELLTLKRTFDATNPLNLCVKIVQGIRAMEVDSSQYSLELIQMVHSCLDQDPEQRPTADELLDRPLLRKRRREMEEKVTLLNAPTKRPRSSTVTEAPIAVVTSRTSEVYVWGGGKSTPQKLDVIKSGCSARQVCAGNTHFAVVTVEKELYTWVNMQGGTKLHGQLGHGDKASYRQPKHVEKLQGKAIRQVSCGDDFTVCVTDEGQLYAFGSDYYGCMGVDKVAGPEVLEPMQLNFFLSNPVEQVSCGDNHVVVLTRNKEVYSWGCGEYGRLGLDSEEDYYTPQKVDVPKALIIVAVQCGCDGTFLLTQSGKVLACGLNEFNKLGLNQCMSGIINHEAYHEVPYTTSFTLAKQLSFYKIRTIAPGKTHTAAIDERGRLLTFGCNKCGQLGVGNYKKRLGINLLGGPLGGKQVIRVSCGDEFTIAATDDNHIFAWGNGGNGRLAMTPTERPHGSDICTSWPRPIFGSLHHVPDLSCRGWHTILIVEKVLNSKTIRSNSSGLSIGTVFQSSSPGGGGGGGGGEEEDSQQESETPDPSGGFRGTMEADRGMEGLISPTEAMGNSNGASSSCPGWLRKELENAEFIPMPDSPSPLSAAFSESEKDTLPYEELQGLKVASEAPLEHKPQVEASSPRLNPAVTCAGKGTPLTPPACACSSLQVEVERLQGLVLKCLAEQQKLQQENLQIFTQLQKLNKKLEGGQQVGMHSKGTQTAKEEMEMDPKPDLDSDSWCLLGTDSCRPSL
Chain of UniProt Q5XJY4 (whole entry, looked up): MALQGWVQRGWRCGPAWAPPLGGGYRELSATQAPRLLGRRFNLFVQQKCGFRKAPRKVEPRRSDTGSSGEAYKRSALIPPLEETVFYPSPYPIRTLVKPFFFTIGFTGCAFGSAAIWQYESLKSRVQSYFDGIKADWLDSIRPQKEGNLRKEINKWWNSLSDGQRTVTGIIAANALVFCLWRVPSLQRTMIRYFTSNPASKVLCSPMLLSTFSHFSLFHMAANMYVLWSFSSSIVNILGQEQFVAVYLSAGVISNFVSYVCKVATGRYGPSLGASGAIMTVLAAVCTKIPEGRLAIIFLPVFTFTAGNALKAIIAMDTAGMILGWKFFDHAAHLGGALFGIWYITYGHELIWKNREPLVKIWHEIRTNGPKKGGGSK
Chain of UniProt P06493 (whole entry, looked up): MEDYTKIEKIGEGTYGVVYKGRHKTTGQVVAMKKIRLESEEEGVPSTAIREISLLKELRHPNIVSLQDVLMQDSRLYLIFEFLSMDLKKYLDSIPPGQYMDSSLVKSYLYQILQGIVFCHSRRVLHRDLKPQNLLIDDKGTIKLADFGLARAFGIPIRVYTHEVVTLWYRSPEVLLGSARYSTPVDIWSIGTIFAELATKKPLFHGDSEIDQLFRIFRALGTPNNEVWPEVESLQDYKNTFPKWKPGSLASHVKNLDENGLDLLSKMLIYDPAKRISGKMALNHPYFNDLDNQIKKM
Chain of UniProt P00519 (whole entry, looked up): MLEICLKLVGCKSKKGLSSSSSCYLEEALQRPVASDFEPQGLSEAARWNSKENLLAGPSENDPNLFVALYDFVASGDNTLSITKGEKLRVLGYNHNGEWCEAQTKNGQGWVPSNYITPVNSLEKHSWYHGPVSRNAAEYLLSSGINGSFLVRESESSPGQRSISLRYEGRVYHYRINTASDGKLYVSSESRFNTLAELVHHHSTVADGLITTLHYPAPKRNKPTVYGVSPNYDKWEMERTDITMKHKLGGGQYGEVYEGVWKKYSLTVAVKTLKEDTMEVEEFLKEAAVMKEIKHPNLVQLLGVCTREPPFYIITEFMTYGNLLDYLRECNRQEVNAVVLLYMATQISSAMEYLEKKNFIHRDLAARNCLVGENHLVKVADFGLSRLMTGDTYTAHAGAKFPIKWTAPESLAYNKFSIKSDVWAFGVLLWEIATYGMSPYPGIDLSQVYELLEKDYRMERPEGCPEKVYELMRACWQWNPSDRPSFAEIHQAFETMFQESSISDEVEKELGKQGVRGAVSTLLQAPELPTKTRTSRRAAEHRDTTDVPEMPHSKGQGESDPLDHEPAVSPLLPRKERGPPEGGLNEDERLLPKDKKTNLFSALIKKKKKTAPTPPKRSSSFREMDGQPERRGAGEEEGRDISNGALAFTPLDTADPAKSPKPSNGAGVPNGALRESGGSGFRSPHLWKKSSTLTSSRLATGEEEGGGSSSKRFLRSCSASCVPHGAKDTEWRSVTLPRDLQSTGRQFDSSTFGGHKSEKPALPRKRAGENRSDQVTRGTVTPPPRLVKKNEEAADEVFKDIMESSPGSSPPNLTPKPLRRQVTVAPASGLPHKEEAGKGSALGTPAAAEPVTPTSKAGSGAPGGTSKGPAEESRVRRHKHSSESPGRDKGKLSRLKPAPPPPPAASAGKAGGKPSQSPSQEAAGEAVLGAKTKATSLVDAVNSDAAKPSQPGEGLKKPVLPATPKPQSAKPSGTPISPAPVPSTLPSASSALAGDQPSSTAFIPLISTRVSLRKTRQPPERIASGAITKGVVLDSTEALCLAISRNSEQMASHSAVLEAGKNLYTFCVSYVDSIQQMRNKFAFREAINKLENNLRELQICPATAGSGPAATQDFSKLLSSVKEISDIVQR

SMILES | target or system | assay | system | setting | scale | measurement | result
O=C(O)c1ccccc1/C=N/Nc1nc(-c2ccccc2Cl)cs1 | MST1R (Homo sapiens, UniProt Q04912) | enzyme activity, inhibitor |  | 1 µM |  | inhibition | -15.7%
CC(C)(C)C(=O)OCOP(=O)(OCOC(=O)C(C)(C)C)C1CCCN(O)C1=O (stereo not shown) | SNB-19 |  |  |  |  | log TGI | -4.54 log M
NC1CCCC1 | BCHE | enzyme activity, inhibitor, Ellman |  | 20 µM |  | inhibition | 30.6%
COc1ccccc1-c1n[nH]c2nc(NC3CCN(C(=O)Cc4ccc(F)cc4F)CC3)ncc12 |  | bead binding, competition bead pull-down, item: LINJ.33.2520 | Leishmania donovani extract | 10 µM | relative to: vehicle | relative abundance | 0.89
CN(C)[C@H]1C[C@@]23CC[C@@]4(O2)C(=CC[C@]2(C)[C@@H](c5ccc6ccncc6c5)CC[C@H]24)C=C3[C@@H](O)[C@@H]1O | MAP3K7 (Homo sapiens, UniProt O43318) | ATP probe labelling, inhibitor, KiNativ profiling |  | 1 µM |  | inhibition | -12.1%
COc1ccccc1-c1n[nH]c2nc(N[C@H]3CC[C@H](NS(=O)(=O)CC(C)C)CC3)ncc12 |  | bead binding, competition bead pull-down, item: LMJF.25.1180 | Leishmania donovani extract | 10 µM | relative to: vehicle | relative abundance | 0.72
Cc1cc(C(=O)Nc2nc3cccc(C)c3n2[C@H]2CCCCN(C(=O)/C=C/CN(C)C)C2)ccn1 | Trypanosoma brucei brucei |  | 2T1 wild type | 150 x EC50 |  | survival | -0.057% and -0.021% and -0.012% and -0.056%
O=C1NC2(CC2)COc2ncc(F)cc2[C@H]2COCCN2c2ccn3ncc1c3n2 |  |  | Sprague-Dawley rat, male, serum | oral, 5 mg/kg/day, end of treatment, 4-week subacute toxicity |  | serum urea | 4.44 ± 0.73 mmol/L
CN[C@@H]1[C@H](O)[C@H](NC)[C@H]2O[C@]3(O)[C@H](O[C@@H]2[C@H]1O)O[C@H](C)C[C@H]3NC(=O)Cc1ccc(Cl)cn1 | Grin1 (Rattus norvegicus, UniProt P35439) |  |  | 10 µM |  | inhibition | 6%
CS(C)(=O)=Nc1ccc(-c2ccc(-c3nc4cc(O[C@@H]5CO[C@H]6[C@@H]5OC[C@H]6O)[nH]c4cc3F)cc2)cc1 | L-type Ca2+ channel dihydropyridine site | binding |  | 10 µM |  | inhibition | 1%
CC(C)[C@H]1NC(=O)C[C@H]2/C=C/CCSSC[C@@H](NC1=O)C(=O)N[C@H](Cc1cccc3ccccc13)C(=O)NCC(=O)O2 | Cyclin-dependent kinase 1, with cyclin B1 (CDK1, Homo sapiens, UniProt P06493) | enzyme activity, inhibitor |  | 10 µM |  | inhibition | -3.7%
CC[C@H](C)[C@H](NC(=O)[C@H](CO)NC(=O)[C@H](Cc1ccc(O)cc1)NC(=O)[C@H](Cc1ccc(O)cc1)NC(=O)[C@H](CC(N)=O)NC(=O)CNC(=O)[C@H](CO)NC(=O)[C@H](Cc1ccc(O)cc1)NC(=O)[C@H](CO)NC(=O)[C@H](CO)NC(=O)[C@H](CC(N)=O)NC(=O)COCCOCCNC(=O)CN1CCN(CC(=O)O)CCN(CC(=O)O)CCN(CC(=O)O)CC1)C(=O)N[C@@H](CC(C)C)C(N)=O [copper-64 labelled] |  | dynamic PET | KPC mouse, pancreatic cancer model, tumor | intravenous, 27.5 min, 49 days after tamoxifen |  | tumour uptake | 6.73 %ID/mL
Fc1cccc(CN2CCNCC2)c1 | BCHE | enzyme activity, inhibitor, Ellman |  | 20 µM |  | inhibition | 31.4%
COc1ccc(F)cc1S(=O)(=O)Nc1cnc2c(c1)C(=O)NCCO2 | angiotensin-converting enzyme | enzyme activity |  | 10 µM |  | inhibition | -15%
N[C@H](C(=O)N1CCCC1)C1CCN(c2nccc3c(-c4ncc(Cl)cc4Cl)cccc23)CC1 | CHEK2 (Homo sapiens, UniProt O96017) | kinase activity, inhibitor |  | 10 µM, with: ATP 1 mM |  | inhibition | -0.8%
Cc1cc(Nc2nc(C[C@@]3(C(=O)O)CCN(Cc4cccc(Cl)c4F)[C@H](C)C3)cc(C)c2F)[nH]n1 | HTR2C (Homo sapiens, UniProt P28335) | inhibitor |  | 10 µM |  | inhibition | 1.46%
CC(C)CC(O)(CC(C)C)c1cn(C(=O)N2CCCC2)nn1 | Presenilin-associated rhomboid-like protein, mitochondrial (Parl, Mus musculus, UniProt Q5XJY4) | enzyme activity, inhibitor, item: Parl | mouse, brain | i.p., 0.8 mg/kg, 4 h, protein level | relative to: vehicle | ratio of ratios | 0.67
CCN(CC)CCOc1ccc(-c2nnn(Cc3ccc(OC)cc3)c2N)cc1 | NMDA receptor (rat) | radioligand binding | cerebral cortex | 10 µM, with: 10000 nM radioligand |  | inhibition | -16.5%
CCn1nc(-c2ccccc2)nc2c(=O)n(C)c(=O)nc1-2 | USP5 (Homo sapiens, UniProt P45974) | enzyme activity, inhibitor |  | 17 µM |  | inhibition | 96%
NCCc1ccc(F)cc1 | BCHE | enzyme activity, inhibitor, Ellman |  | 20 µM |  | inhibition | 35.7%
Cc1cc(-c2ccc3ccccc3c2)nnc1NCCN1CCN(C)CC1 | SLC22A8 (Homo sapiens, UniProt Q8TCC7) | transport |  | concentration not given |  | inhibition | negative
CN(/N=C/c1ccccc1C(=O)O)c1nc(-c2ccccc2Cl)cs1 | NEK9 (Homo sapiens, UniProt Q8TD19) | enzyme activity, inhibitor |  | 1 µM |  | inhibition | -15.3%
O=C(CN1CN(c2ccccc2)C2(CCN(C(=O)c3cnc4[nH]ncc4c3)CC2)C1=O)NCC(F)(F)F | EGFR (Homo sapiens, UniProt P00533, del747-752/P753S) | inhibitor |  | concentration not given |  | inhibition | < 50%
O=C1NC(=O)c2c1c1cc(F)c[n+]3c1c1c2c2cc(O)ccc2[n]1[Ru-4]312([N]=C=S)[S+]3CC[S+]1CC[S+]2CC3 (stereo not shown) | STK24 (Homo sapiens, UniProt Q9Y6E0) | enzyme activity |  | 100 nM, human enzyme, with: 10 µM ATP | relative to: untreated | remaining activity | 16%
C[C@H](NCc1ccc(-c2ccc(C(F)(F)F)cc2)cc1)C(N)=O | Tyrosine-protein kinase ABL1, non-phosphorylated (ABL1, Homo sapiens, UniProt P00519) | cell-free assay, competition with immobilised ligand |  | 1 µM |  | inhibition | 10%

Excerpt of the above:
SMILES | target or system | assay | system | setting | scale | measurement | result
CS(C)(=O)=Nc1ccc(-c2ccc(-c3nc4cc(O[C@@H]5CO[C@H]6[C@@H]5OC[C@H]6O)[nH]c4cc3F)cc2)cc1 | L-type Ca2+ channel dihydropyridine site | binding |  | 10 µM |  | inhibition | 1%
CC(C)[C@H]1NC(=O)C[C@H]2/C=C/CCSSC[C@@H](NC1=O)C(=O)N[C@H](Cc1cccc3ccccc13)C(=O)NCC(=O)O2 | Cyclin-dependent kinase 1, with cyclin B1 (CDK1, Homo sapiens, UniProt P06493) | enzyme activity, inhibitor |  | 10 µM |  | inhibition | -3.7%
CC[C@H](C)[C@H](NC(=O)[C@H](CO)NC(=O)[C@H](Cc1ccc(O)cc1)NC(=O)[C@H](Cc1ccc(O)cc1)NC(=O)[C@H](CC(N)=O)NC(=O)CNC(=O)[C@H](CO)NC(=O)[C@H](Cc1ccc(O)cc1)NC(=O)[C@H](CO)NC(=O)[C@H](CO)NC(=O)[C@H](CC(N)=O)NC(=O)COCCOCCNC(=O)CN1CCN(CC(=O)O)CCN(CC(=O)O)CCN(CC(=O)O)CC1)C(=O)N[C@@H](CC(C)C)C(N)=O [copper-64 labelled] |  | dynamic PET | KPC mouse, pancreatic cancer model, tumor | intravenous, 27.5 min, 49 days after tamoxifen |  | tumour uptake | 6.73 %ID/mL
